Assay results pooled from the literature.
Several values in a cell are separate wells, animals, samples, runs or records. Numbers after ± are the reported error.

SMILES | cell line | test | conditions | IC50
COc1ccccc1C[C@@H](Oc1cccc2cc(-c3ccc(F)cc3)n(-c3ccc(OCCN4CCN(C)CC4)c(Cl)c3C)c12)C(=O)O | NCI-H929 | cell viability, MTT | 48 h, 10% CFS | > 1.88 µM
Cc1cc(C2CCCCC2)n(O)c(=O)c1 | NIH3T3 | resazurin | 250 cells per well | 5.98 ± 1 µM
c1ccc(-c2cc3ccccc3[nH]2)cc1 | HEK293 NF-κB luciferase reporter | reporter gene, item: NF-κB | 6 h, together with: TNFα | 25.4 µM and < 50 µM
COc1cc(C(=O)c2oc3c(OC)cccc3c2NC(C)=O)cc(OC)c1OC | L1210 | cell growth or viability | 24 h | 52.7 µM
C=CC(C)(C)c1cc(-c2oc3cc(O)ccc3c2Cc2cc(-c3cc4cc(C(C)(C)C=C)c(O)cc4oc3=O)c(O)cc2O)c(O)cc1O | Hepa1c1c7 | cell growth | – | 10.8 µM
CC(O)c1cc(C(=O)N[C@@H](C)Cn2ccc(-c3ccc(C#N)c(Cl)c3)n2)[nH]n1 (stereo partly shown) | LAPC4 | cell growth or viability, ATP luminescence | – | 0.5 µM
C=C1C(=O)O[C@@H]2C[C@@]3(C)CCC[C@H](C)C3=C[C@H]12 | LAPC4 | AR transcriptional activity, antagonist, PSA promoter luciferase | 24 h | 1.01 µM
O=c1cc(-c2ccc(O)cc2)oc2cc(O)cc(O)c12 | MOLT-3 | cell growth or viability, ATP luminescence | 24 h | 140 µM
COc1cc(-c2c3n(c4c(=O)[nH]nc(O)c24)CCn2cccc2-3)ccc1O | PANC-1 | cell growth or viability, MTT | 48 h | 15 µM
NC1(c2ccc(-c3nc4ccn5c(=O)[nH]nc5c4cc3-c3ccccc3)cc2)CCC1 | MDA-MB-231 LINK-A PIP3-BM knock-out | spheroid growth, 3D spheroid viability | – | ~0.05 µM
CC(C)C[C@H](NC(=O)[C@H](Cc1ccccc1)NC(=O)c1cnccn1)B(O)O | RPMI-8226 | cell viability, ATP luminescence | 48 h, together with: EGCG 0 nM | 0.0061 µM
COC(=O)c1c(-c2ccccc2O)c2n(c1C(=O)OC)CCn1cccc1-2 | PANC-1 | cell growth or viability, MTT | 48 h | 20.3 µM
C=CCc1ccc(O)c(-c2ccc(O)c(CC=C)c2)c1 | GM12878 | cell proliferation, MTS | 24 h, together with: BLM 10 µM | 126 µM
COC(=O)c1c(-c2cccc(OC)c2)c2n(c1C(=O)OC)CCn1cccc1-2 | PANC-1 | cell growth or viability, MTT | 48 h | 67.2 µM
Cc1c2c(cc3c(-c4ccccc4)cc(=O)oc13)C(=O)CC1(CCCCC1)O2 | NIH3T3 | hyaluronan secretion | 72 h | 250 ± 164 µM
CCCCCCCC/C=C\CCCCCCCC[N+](C)(C)CCCS(=O)(=O)[O-] | SK-OV-3 eGFP-transfected | cell viability, MTT | 24 h | 62 µM
Cc1cc(C(=O)/C(=C\c2ccccc2C)c2ccccc2C)c(C(=O)N2CCCCC2)c(=O)[nH]1 | human primary dermal fibroblasts | cell proliferation, MTT | 72 h | > 10 µM
COc1ccc2oc(C(=O)c3cc(OC)c(OC)c(OC)c3)c(NC(=O)CCl)c2c1 | L1210 | cell growth or viability | 24 h | 49 µM
COc1ccc(CNc2nc(NCc3ccc(OC)cc3)c3ncn(C(C)C)c3n2)cc1 | LAPC4 | AR transcriptional activity, antagonist, PSA promoter luciferase | 24 h | 4.05 µM
COc1ccc(-c2ccccc2)c(/C=N/NC(=O)c2ccccc2O)c1O | PANC-1 | cell growth or viability | 72 h | 1.46 µM
COc1cc(C(=O)c2oc3c(OC)cccc3c2NC(=O)CBr)cc(OC)c1OC | L1210 | cell growth or viability | 24 h | > 100 µM
Cn1cc(Nc2nccc(-c3ccc4c(c3)CN(C3COC3)CC[C@H]4NC(=O)c3cn(C(C)(C)C)nn3)n2)cn1 | human primary monocytes | TNFα production | three donors, together with: anti-human CD64 (FcγR stimulation) | 0.0031 ± 0.0014 µM
